Measured values of several laboratories.
Compare with care: the assays were run in different laboratories. Several values in a cell are separate wells, animals, samples, runs or records.
INSR: Insulin receptor (INSR, Homo sapiens, UniProt P06213)
INSR phosphorylated: Insulin receptor, phosphorylated (INSR, Homo sapiens, UniProt P06213)

Structure (SMILES) | target | test | conditions | how to read | endpoint | value
CN1CCN(Cc2ccc(NC(=O)c3cccc(C#Cc4cnc(N)c5ncccc45)c3)cc2C(F)(F)F)CC1 | INSR | cell-free assay, competition with immobilised ligand | 50 nM | – | remaining binding | 77%
C=C1CCCCCCCCCC(CO)C1=O (stereo not shown) | INSR | cell-free assay | 10 µM | – | remaining signal | 100%
NC(=O)[C@@H](O)C[C@H]1CCc2sc3ncnc(O[C@H]4CC[C@H](N5CCOCC5)CC4)c3c21 | INSR | enzyme activity, inhibitor | 10 µM | – | inhibition | 10%
C[C@H]1CN(C(=O)c2cn(-c3ccnc(N)n3)c3cc(C#CC4(O)CCCCC4)ccc23)CCN1 | INSR | enzyme activity, inhibitor, FRET | 1 µM | – | inhibition | -2%
CN1CC[C@@H](COc2cnc(C#N)cc2-c2ccn3nc(NC(=O)C4CC4)cc3c2)C1 | INSR phosphorylated | enzyme activity, inhibitor | 1 µM | – | inhibition | 1%
COCC12C(=O)NC3C4(C(OC)CC1O)C1CC5(O)C(OC)C(O)C(OC(C)=O)(C1C5OC(=O)c1ccccc1)C3(O)C(OC)C24 (stereo not shown) | INSR | kinase activity, inhibitor, ProQinase kinase profiling | 25 µM | reference: control | remaining activity | 101% and 106%
Cc1nc2c(F)cc(-c3nc(Nc4ccc(CNC(=O)CCCCCCC(=O)NO)cc4)ncc3F)cc2n1C(C)C | INSR | enzyme activity, inhibitor | 1 µM | – | inhibition | 67%
Cc1ccc(-c2c(/C=C(\C#N)C(=O)NC(C)C)n(CCCO)c3ncnc(N)c23)cc1 | INSR | cell-free assay, competition with immobilised ligand | 1 µM | – | remaining binding | 77%
CC(C)=CC1OC(C)(C)C2C=C3C(=O)C(Cl)=CC(O)C3C3C(O)C4OC4C(=O)C132 (stereo not shown) | INSR | cell-free assay, competition with immobilised ligand | 10 µM | – | remaining binding | 99%
Nc1ncc(-c2cc(-c3cnn(CC(F)(F)F)c3)ncc2F)nc1C(=O)NC1CNCC(F)C1 (stereo not shown) | INSR | enzyme activity | 1 µM | reference: DMSO control | remaining activity | 93.4%
CCN1CCN(Cc2ccc(C(=O)Nc3ccc(C)c(NCc4cnc5[nH]ccc5c4OC)c3)cc2C(F)(F)F)CC1 | INSR | binding, competition with immobilised ligand | 1 µM | – | remaining binding | 100%
O=C(Cc1ccc(OCc2ccccc2)cc1)NC1(C(=O)O)CCN(C(=O)c2ccc(-c3cccc(Cl)c3)cc2)CC1 | INSR phosphorylated | enzyme activity, inhibitor | 10 µM | – | activity vs control | 102%
Cc1cnc2nc1Nc1cccc(c1)COC/C=C/COCc1cc(ccc1OCCN1CCOCC1)N2 | INSR | binding | 0.1 µM | – | remaining binding | 58%
Cc1cccc(-c2ccc3nc(NC(=O)C4CCOCC4)nn3c2)c1 | INSR | enzyme activity, Dundee kinase panel | 10 µM | – | remaining activity | 78%
C=CC(=O)Nc1cccc(-c2cnc3[nH]cc(C(=O)NC(C)(C)C)c3n2)c1 | INSR | kinase activity | 0.1 µM | – | inhibition | 2% and 4%
COC(=O)[C@@]1(C)C=C(C(=O)Nc2cccc(C(=O)Nc3ccc(Nc4nccc(-c5cccnc5)n4)c(C)c3)c2)C(=O)CC1 | INSR | binding, competition with immobilised ligand | 1 µM | – | remaining binding | 77%
Cc1cccc(-c2ccc3nc(NC(=O)C4CCCO4)nn3c2)c1 (stereo not shown) | INSR | enzyme activity, Dundee kinase panel | 10 µM | – | remaining activity | 80%
COc1ccc(NC(=O)Nc2ccc3c(c2)C(=O)N(C(C)CO)CC(C)C(CN(C)Cc2ccc4c(c2)OCO4)O3)cc1 (stereo not shown) | INSR | kinase activity | 0.03 µM | reference: control | remaining activity | 101%
O=C=[N][Ru-4]123([n]4c5ccc(O)cc5c5c6c(c7cc(F)c[n+]1c7c54)C(=O)NC6=O)[S+]1CC[S+]2CC[S+]3CC1 (stereo not shown) | Insulin receptor, activated (INSR, Homo sapiens, UniProt P06213) | enzyme activity | 100 nM, human enzyme, added: 10 µM ATP | reference: untreated | remaining activity | 60%
CNC(=O)C[C@H](Cc1ccc(C#N)cc1)NC(=O)c1cc(-c2ccc(CN[C@H](C)c3ccc(C)cc3)o2)ccc1Cl | INSR | enzyme activity, inhibitor | 1 µM | – | activity vs control | 106%
CCn1cc(C(=O)O)c(=O)c2c(N)c(F)c(NC3CCCCC3)cc21 | INSR | kinase activity | 0.1 µM, added: ATP at Km | – | inhibition | 6.6%
CN1CCN(Cc2ccc(-c3ccc(CO[C@H]4CCC[C@@H]4NC(=O)c4cc(-c5cnn(C)c5)cnc4N)cc3)cc2)CC1 | INSR | enzyme activity, inhibitor | 0.1 µM | – | inhibition | 0%
COc1c(Cl)cccc1Nc1c(-c2ccncc2C#C[C@@]2(C)CCCN2C(=O)/C=C/CN(C)C)[nH]c2c1C(=O)NCC2 | INSR | cell-free assay, competition with immobilised ligand | 3 µM | – | remaining binding | 98%
Cc1cccc(O[C@H]2CCC[C@@H](C(C)CNCc3ccncc3)C2)c1 (relative stereo) | INSR | cell-free assay | 1 µM | – | inhibition | 2%
COc1cc(Nc2nccc(-c3cnn4nc(OC)ccc34)n2)cc(C(F)(F)F)c1 | INSR | binding, competition with immobilised ligand | 1 µM | – | remaining binding | 79%
